Experimental data collected from several papers.
Each numbered part is a random draw from the data of one study; scales do not carry over between parts.
UniProt P10721, sequence (whole entry, unmodified, looked up): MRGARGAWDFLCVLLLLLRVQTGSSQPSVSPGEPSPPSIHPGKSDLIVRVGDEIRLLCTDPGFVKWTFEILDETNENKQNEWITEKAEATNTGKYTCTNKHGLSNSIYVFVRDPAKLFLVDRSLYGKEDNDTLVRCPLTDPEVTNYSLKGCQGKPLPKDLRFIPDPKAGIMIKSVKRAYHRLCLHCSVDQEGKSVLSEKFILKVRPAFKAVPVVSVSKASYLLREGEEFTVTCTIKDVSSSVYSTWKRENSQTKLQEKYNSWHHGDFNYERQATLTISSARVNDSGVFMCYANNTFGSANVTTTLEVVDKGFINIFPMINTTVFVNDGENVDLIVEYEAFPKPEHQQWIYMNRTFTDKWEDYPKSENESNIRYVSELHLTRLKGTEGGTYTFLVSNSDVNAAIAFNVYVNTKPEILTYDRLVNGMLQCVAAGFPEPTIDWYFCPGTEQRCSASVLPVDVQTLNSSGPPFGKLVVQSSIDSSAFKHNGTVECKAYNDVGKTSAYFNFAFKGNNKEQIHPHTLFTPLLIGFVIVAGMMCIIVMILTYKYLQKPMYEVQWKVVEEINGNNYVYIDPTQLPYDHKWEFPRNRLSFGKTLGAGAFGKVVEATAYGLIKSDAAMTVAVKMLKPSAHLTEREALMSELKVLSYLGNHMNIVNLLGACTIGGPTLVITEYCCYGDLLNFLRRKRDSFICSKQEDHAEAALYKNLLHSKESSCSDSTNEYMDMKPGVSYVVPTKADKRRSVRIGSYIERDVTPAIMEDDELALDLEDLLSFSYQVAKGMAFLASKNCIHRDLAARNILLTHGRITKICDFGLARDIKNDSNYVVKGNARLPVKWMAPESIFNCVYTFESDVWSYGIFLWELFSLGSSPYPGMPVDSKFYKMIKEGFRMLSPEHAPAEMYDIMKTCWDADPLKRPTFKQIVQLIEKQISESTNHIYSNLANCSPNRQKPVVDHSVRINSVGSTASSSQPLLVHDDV
UniProt Q9NRH2, sequence (whole entry, looked up): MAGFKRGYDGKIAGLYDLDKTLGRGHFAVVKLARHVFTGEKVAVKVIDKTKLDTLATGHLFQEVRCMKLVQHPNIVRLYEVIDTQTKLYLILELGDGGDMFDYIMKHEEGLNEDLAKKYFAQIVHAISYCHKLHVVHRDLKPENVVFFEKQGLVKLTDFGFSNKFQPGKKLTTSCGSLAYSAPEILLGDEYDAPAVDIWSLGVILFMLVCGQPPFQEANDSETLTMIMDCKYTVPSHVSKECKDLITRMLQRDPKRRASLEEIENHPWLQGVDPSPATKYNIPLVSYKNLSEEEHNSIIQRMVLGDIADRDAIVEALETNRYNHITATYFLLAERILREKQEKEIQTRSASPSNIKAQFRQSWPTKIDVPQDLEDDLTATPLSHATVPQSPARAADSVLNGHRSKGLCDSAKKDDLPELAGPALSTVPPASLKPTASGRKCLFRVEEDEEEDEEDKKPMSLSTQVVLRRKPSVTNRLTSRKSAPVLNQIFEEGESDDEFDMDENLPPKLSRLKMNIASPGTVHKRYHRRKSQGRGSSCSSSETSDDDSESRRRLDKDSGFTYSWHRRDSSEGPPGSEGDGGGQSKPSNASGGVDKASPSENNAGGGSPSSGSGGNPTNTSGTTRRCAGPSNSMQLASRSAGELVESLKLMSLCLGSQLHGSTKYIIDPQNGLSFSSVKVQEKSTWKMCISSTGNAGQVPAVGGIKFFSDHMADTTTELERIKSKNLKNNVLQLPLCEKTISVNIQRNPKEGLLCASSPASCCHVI
UniProt Q9Y4K4, sequence (whole entry, looked up): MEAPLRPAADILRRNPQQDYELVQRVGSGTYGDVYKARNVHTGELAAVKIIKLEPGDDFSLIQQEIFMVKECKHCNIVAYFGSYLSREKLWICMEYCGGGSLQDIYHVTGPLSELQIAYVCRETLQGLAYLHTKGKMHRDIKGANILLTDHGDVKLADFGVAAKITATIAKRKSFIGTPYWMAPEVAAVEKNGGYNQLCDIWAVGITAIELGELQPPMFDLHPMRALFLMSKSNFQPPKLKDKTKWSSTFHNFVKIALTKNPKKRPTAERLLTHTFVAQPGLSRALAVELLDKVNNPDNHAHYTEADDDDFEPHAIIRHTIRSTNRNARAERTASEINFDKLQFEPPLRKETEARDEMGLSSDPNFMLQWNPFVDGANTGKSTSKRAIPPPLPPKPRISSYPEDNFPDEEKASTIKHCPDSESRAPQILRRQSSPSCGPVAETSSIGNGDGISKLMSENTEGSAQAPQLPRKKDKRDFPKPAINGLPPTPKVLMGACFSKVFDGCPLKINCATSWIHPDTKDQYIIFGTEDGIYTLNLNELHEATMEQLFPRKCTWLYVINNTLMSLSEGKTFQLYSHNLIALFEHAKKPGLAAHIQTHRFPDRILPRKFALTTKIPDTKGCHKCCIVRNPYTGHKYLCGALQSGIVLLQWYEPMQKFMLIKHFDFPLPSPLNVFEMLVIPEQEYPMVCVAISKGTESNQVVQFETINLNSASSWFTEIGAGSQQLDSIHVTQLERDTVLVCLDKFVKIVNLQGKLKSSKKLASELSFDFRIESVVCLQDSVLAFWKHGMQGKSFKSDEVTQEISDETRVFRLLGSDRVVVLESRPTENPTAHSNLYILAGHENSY
UniProt Q99759, sequence (whole entry, looked up): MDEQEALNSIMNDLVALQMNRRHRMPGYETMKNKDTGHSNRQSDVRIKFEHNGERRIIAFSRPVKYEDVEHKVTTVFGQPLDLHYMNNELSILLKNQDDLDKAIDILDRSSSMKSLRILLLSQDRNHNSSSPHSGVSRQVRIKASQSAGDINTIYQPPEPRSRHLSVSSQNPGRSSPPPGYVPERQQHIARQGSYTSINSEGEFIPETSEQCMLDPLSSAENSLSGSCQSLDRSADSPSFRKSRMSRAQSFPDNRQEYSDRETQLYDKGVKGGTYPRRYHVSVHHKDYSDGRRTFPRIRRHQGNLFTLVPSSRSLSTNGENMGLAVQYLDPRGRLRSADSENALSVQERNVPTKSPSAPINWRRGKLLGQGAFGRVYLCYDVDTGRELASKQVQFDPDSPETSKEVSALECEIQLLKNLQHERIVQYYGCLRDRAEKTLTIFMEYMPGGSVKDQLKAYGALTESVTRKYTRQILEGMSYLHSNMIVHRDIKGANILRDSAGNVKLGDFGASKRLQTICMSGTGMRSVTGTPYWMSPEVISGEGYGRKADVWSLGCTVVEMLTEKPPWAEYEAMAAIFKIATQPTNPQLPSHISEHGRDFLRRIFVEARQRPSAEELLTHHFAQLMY
UniProt O96017, sequence (whole entry, looked up): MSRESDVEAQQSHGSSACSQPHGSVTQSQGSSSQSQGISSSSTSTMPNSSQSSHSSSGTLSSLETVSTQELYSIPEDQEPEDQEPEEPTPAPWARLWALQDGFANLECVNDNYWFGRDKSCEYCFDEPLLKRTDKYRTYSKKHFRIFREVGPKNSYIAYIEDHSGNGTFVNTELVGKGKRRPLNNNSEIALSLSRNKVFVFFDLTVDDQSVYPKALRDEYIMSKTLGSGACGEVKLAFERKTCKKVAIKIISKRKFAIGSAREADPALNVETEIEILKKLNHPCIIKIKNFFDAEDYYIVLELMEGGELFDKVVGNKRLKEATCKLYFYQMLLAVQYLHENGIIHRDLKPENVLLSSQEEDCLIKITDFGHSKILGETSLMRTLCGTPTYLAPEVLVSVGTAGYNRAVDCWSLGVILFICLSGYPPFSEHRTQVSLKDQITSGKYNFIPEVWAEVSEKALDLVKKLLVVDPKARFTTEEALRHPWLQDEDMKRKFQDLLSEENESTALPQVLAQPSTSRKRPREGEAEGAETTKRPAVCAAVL

Study 1
Target: Calcium/calmodulin-dependent protein kinase type II subunit alpha (CAMK2A, Homo sapiens, UniProt Q9UQM7)
UniProt Q9UQM7, sequence (whole entry, looked up): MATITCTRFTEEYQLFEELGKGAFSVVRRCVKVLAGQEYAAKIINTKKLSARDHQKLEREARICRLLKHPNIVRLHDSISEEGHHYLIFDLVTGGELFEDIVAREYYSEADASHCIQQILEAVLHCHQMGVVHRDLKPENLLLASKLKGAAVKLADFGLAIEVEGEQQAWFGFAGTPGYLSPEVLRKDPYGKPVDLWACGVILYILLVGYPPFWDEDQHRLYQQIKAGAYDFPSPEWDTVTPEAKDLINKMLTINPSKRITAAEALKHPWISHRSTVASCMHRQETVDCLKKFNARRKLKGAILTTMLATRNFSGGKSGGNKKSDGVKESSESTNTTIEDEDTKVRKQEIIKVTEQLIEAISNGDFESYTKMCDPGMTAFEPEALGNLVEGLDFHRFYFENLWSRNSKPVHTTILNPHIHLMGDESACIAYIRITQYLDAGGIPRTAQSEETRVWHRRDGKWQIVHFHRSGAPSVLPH
Effect on: enzyme activity
Action: inhibitor
Concentration: 10 µM
| SMILES | inhibition |
| --- | --- |
| Cc1ccn(C)n1 | 0% |
| CC(C)=CCC[C@](C)(O)[C@H]1CC[C@]2(C)[C@@H]1[C@H](O)C[C@@H]1[C@@]3(C)C[C@@H](O)[C@H](O[C@@H]4O[C@H](CO)[C@@H](O)[C@H](O)[C@H]4O[C@@H]4O[C@H](CO)[C@@H](O)[C@H](O)[C@H]4O)C(C)(C)[C@@H]3CC[C@]12C | 30% |
| C[C@]12CCC(=O)C=C1CC[C@@H]1[C@@H]2C(=O)C[C@@]2(C)[C@H]1CC[C@]2(O)C(=O)CO | 26% |
| CC(C)NCC(O)COc1ccc(COCCOC(C)C)cc1 (stereo not drawn) | -4% |
| COC(c1ccccc1)(c1ccccc1)[C@H](Oc1nc(C)cc(C)n1)C(=O)O | 3% |
| COc1ccccc1N1CCN(CC(O)COc2cccc3ccccc23)CC1 (stereo not drawn) | -3% |
| O=c1cc(O)cc(/C=C/c2ccc(O)c(O)c2)o1 | -1% |
| C=C(C#N)C(=O)OCCCC | -3% |
| COC(=O)[C@@]1(C)CC[C@]2(C(=O)O)CC[C@]3(C)C(=CC[C@@H]4[C@@]5(C)C[C@H](O)[C@H](O[C@@H]6OC[C@@H](O[C@@H]7O[C@H](CO)[C@@H](O)[C@H](O)[C@H]7O)[C@H](O)[C@H]6O)[C@@](C)(CO)[C@@H]5CC[C@]43C)[C@@H]2C1 | -37% |
| O=CCc1ccccc1 | -3% |
| NC(=O)c1cc[n+](CC2=C(C(=O)O)N3C(=O)[C@@H](NC(=O)[C@@H](c4ccccc4)S(=O)(=O)[O-])[C@H]3SC2)cc1 | -19% |
| O=C1CC[C@H](C(=O)O)N1 | 44% |
| O=C(O)C(=O)CO | -2% |

Study 2
Target: cGMP-dependent protein kinase 1 (PRKG1, Homo sapiens, UniProt Q13976)
UniProt Q13976, sequence (whole entry, looked up): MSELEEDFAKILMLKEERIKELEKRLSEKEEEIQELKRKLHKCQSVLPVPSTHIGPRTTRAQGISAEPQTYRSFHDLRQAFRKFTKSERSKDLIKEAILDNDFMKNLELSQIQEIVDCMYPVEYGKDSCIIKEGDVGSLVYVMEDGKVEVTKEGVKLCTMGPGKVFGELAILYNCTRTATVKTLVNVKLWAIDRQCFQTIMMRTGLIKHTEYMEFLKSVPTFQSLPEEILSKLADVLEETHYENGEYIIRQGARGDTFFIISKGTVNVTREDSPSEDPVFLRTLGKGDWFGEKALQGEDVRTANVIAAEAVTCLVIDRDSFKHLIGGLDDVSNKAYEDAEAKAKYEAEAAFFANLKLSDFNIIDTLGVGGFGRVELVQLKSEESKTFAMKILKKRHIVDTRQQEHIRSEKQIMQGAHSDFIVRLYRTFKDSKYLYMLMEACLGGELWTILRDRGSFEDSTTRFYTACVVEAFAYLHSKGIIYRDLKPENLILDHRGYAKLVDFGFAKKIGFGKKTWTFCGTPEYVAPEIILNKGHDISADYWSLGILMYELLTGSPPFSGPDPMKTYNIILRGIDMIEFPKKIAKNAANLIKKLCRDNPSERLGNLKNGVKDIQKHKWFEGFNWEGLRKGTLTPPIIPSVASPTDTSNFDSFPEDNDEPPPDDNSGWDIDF
Effect on: enzyme activity
Action: inhibitor
Concentration: 0.5 µM
Reference: control
| Compound | remaining activity [%] |
| --- | --- |
| CN(C)C[C@H]1CCn2c(c(C3=C(c4cn(C)c5ccccc45)C(=O)NC3=O)c3ccccc32)C1 | 81 |
| Cc1cc2ncc(-c3ccccc3)nc2cc1C | 86.2 |
| O=C(Nc1cccc(Nc2nccc(Nc3cccc(C(F)(F)F)c3)n2)c1)C1CC1 | 99.3 |
| Cc1nc2cc3nc(-c4cccs4)cnc3cc2n1C | 99.7 |
| C[C@@H]1CCN(C(=O)CC#N)C[C@@H]1N(C)c1ncnc2[nH]ccc12 | 82 |
| Cc1cn(-c2cc(NC(=O)c3ccc(C)c(Nc4nccc(-c5cccnc5)n4)c3)cc(C(F)(F)F)c2)cn1 | 90.3 |
| CCOc1nc(NC(=O)Cc2cc(OC)ccc2OC)cc(N)c1C#N | 101 |
| CCN(CC)CCNC(=O)c1c(C)[nH]c(/C=C2\C(=O)Nc3ccc(F)cc32)c1C | 65.3 |
| N#C/C(=C\c1ccc(O)c(O)c1)C(=O)NCc1ccccc1 | 89.2 |
| Cn1nc2c3c(cccc31)C(=O)c1ccccc1-2 | 96 |
| c1ccc(-c2cnc(Nc3ccc(OCCN4CCCC4)cc3)s2)cc1 | 100 |
| O=c1cc(-c2cccc3c2Sc2ccccc2S3)oc(N2CCOCC2)c1 | 103 |
| N#Cc1c(NC(=O)c2cccc3ccccc23)sc2c1CCCC2 | 101 |
| O=C(NC(NC(=S)Nc1ccc(F)c([N+](=O)[O-])c1)C(Cl)(Cl)Cl)C(c1ccccc1)c1ccccc1 (stereo not drawn) | 100 |
| O=C1Nc2ccc(Cl)cc2C1=Cc1cc(Cl)c(O)c(Cl)c1 | 96.8 |
| COc1cc2ncnc(Nc3ccc(O)c(Br)c3)c2cc1OC | 87.1 |
| CCN(CC)CCNC(=O)c1c(C)[nH]c(/C=C2\C(=O)Nc3ccc(Cl)cc32)c1C | 64.2 |
| c1ccc(-c2[nH]ncc2-c2ccnc3ccccc23)nc1 | 92.7 |
| COc1cc2ncnc(Nc3cccc(Cl)c3)c2cc1OC | 93.8 |
| O=C1C(Cl)=C(N2C(=O)CCC2=O)C(=O)c2ccccc21 | 97.8 |
| Ic1cccc(CSc2nnc(-c3ccncc3)o2)c1 | 92.1 |
| COc1cc2c(cc1OC)-c1[nH]nc(Nc3cccc(F)c3)c1C2 | 95.2 |
| CCN(CC)C(=O)c1ccc(Nc2nc(OCC3CCCCC3)c3[nH]cnc3n2)cc1 | 89.8 |
| O=C1c2ccccc2-c2n[nH]c3cccc1c23 | 87.8 |

Study 3
SMILES: C=CC(=O)N1CCC[C@@H](n2nc(-c3ccc(Oc4ccccc4)cc3)c3c(N)ncnc32)C1
Action: inhibitor
Concentration: 1 µM
| target | test | inhibition [%] |
| --- | --- | --- |
| MAP3K13 (Homo sapiens, UniProt O43283) | enzyme activity | 22 |
| DAPK1 (Homo sapiens, UniProt P53355) | enzyme activity | 20 |
| MAP3K3 (Homo sapiens, UniProt Q99759) | – | 30 |
| SNRK (Homo sapiens, UniProt Q9NRH2) | enzyme activity | 2 |
| CHEK2 (Homo sapiens, UniProt O96017) | enzyme activity | 21 |
| CAMK1 (Homo sapiens, UniProt Q14012) | enzyme activity | 15 |
| CDC42BPA (Homo sapiens, UniProt Q5VT25) | enzyme activity | 0 |
| LYN (Homo sapiens, UniProt P07948) | enzyme activity | 85 |
| BMPR1A (Homo sapiens, UniProt P36894) | enzyme activity | 0 |
| PIK3C2G (Homo sapiens, UniProt O75747) | enzyme activity | 21 |

Study 4
Compound: COc1cccc(CNC(=O)c2nc3scc(COCc4ccc(C(=O)O)cc4)c3c(=O)[nH]2)c1
Effect on: cell-free assay
Technique: competition with immobilised ligand
Concentration: 1 µM
| target | remaining binding [%] |
| --- | --- |
| DDR1 (Homo sapiens, UniProt Q08345) | 100 |
| CAMK2A (Homo sapiens, UniProt Q9UQM7) | 92.5 |
| KIT (Homo sapiens, UniProt P10721, T670I/V559D) | 100 |
| KIT (Homo sapiens, UniProt P10721, A829P) | 69.2 |
| SNRK (Homo sapiens, UniProt Q9NRH2) | 89.2 |
| PRKG1 (Homo sapiens, UniProt Q13976) | 100 |
| MET (Homo sapiens, UniProt P08581) | 100 |
| EGFR (Homo sapiens, UniProt P00533, L861Q) | 77.8 |
| KIT (Homo sapiens, UniProt P10721) | 93 |
| STK3 (Homo sapiens, UniProt Q13188) | 100 |
| FGFR2 (Homo sapiens, UniProt P21802) | 100 |
| DCLK3 (Homo sapiens, UniProt Q9C098) | 100 |
| PRKCD (Homo sapiens, UniProt Q05655) | 87.7 |
| PIK3CA (Homo sapiens, UniProt P42336, H1047Y) | 100 |
| SRMS (Homo sapiens, UniProt Q9H3Y6) | 78.3 |
| MAP3K14 (Homo sapiens, UniProt Q99558) | 100 |
| Ribosomal protein S6 kinase alpha-4, C-terminal kinase domain (RPS6KA4, Homo sapiens, UniProt O75676) | 82.3 |
| TNIK (Homo sapiens, UniProt Q9UKE5) | 100 |
| KIT (Homo sapiens, UniProt P10721, V559D/V654A) | 98 |
| MAP4K5 (Homo sapiens, UniProt Q9Y4K4) | 87.3 |
| EGFR (Homo sapiens, UniProt P00533, del752-759) | 98.7 |
| FGFR4 (Homo sapiens, UniProt P22455) | 91.4 |
| RIPK1 (Homo sapiens, UniProt Q13546) | 97.4 |
| NTRK2 (Homo sapiens, UniProt Q16620) | 67.1 |
| TXK (Homo sapiens, UniProt P42681) | 87.7 |
